Experimental data collected from several papers.
A part holds a random share of what one study measured.

Study 1
Target: RNA binding protein fox-1 homolog 2, RRM domain, GST-SBP tag (RBFOX2, Homo sapiens, UniProt O43251-10, residues 100-194)
Method: RNA Bind-n-Seq
Form: RNA
Sample: in vitro
Tested at: 365 nM
Setting: natural RNA segment, single round, ends assumed
Reference: no-protein control
Reading: higher = stronger binding
Measurement: RBNS enrichment (R)
Construct (chain): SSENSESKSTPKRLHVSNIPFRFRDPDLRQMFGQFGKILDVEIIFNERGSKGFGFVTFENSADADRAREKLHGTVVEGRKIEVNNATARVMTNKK
Strand = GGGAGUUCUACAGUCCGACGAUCACCAAAAGGAAAUCAACUGAGUGGGUGUUUGGAAGAGGAAGGAGCAACUCUCGGGCAGCCUGCCCAAGGGAGGGAGCAAGUUGCAAUUUAGAAGAUGCCAUACGUCGUGUUGGAAUUCUCGGGUGCCAA; value = 0.612
Strand = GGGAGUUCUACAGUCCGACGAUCUUAACUUGUUUCAAUGCCUACUUUUAAUGGAGGUUAUUAAACACUUUAACCUCCCUUCUAGCCCACCACCAACCAGAGAUAGUGGGAAAGAAAGGAUACAGGGGAAGUGGUGGAAUUCUCGGGUGCCAA; value = 0.272
Strand = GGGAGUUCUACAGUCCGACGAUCUUGAUAAGAUUAACAAUGUGUGCUUUGUAAAUGCCUUUUUCCUUAUCUUCUAUGUCUCUGUCAAGGACAGAAGUUGUCAGUUUAAUACACGAGCUCUUGUGUUGAAAGUGUGGAAUUCUCGGGUGCCAA; value = 0.571
Strand = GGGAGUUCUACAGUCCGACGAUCCUCGGCAGCAGUGACUGCAGCCCCAGCUUGCUUAAGCAGUGUAACAGCAGGGAAGCGGGAGGAGCUGAGAACUAUUAGAAGUUCCUAUUAUUUAUAAAUUCCACCCAAAGUGGAAUUCUCGGGUGCCAA; value = 0.356
Strand = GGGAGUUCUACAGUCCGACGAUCACCCCGUGCCGUGUAGACACUCAUCUUCUGCAUGACAUGAUCUACCAUUCGGUGUAAACAUUUGUGUUUAUAAGAUUUACUUUGUUUUUAUUUUUCUACUUGGAACUGUAUGGAAUUCUCGGGUGCCAA; value = 3.47
Strand = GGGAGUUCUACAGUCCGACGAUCGAUGAUAAUGAGGUACUGAACCACGAUGGCUGUUGAGGAAUUGGUCCUAAAAGGACAGAUCACUUCAGAAGAGUGAAUAACUGAUUUGCACAGCUGAAUCAGGAGACACAUGGAAUUCUCGGGUGCCAA; value = 0.303
Strand = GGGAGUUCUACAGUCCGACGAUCACACUUAACAUUUGAGACUAGUAUUUAUUGAUCCAGGCAAAGUAAUUAAUUAAUCAUGCUUGGGCUUACUUUUUCAGUUUGUAAGGUUAAGCAUAUGUGCAUGCGUGCGUUGGAAUUCUCGGGUGCCAA; value = 4.59
Strand = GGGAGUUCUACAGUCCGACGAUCAGGAUCCUCCAAUUUUGGAUCUUCUACAGAUCCCCCAGUGUUCUAGUUUAGUAAACUGGCCCAUUUGGGCUGAAGAACUUGUGUGGAAAGAGUCCAAACAACUCAUCAUUUGGAAUUCUCGGGUGCCAA; value = 0.314

Study 2
Target: Phosphate system positive regulatory protein PHO4, full length, GST-tagged (PHO4, Saccharomyces cerevisiae, UniProt P07270, residues 1-312)
Method: competition protein-binding microarray
Form: double-stranded DNA, one strand shown
Sample: in vitro
Tested at: 2 µM
Setting: whole 60-bp probe, lowest competitor level
Added: Cbf1 competitor, 0.05 µM
Reading: higher = stronger binding
Measurement: fluorescence intensity
Residues (chain): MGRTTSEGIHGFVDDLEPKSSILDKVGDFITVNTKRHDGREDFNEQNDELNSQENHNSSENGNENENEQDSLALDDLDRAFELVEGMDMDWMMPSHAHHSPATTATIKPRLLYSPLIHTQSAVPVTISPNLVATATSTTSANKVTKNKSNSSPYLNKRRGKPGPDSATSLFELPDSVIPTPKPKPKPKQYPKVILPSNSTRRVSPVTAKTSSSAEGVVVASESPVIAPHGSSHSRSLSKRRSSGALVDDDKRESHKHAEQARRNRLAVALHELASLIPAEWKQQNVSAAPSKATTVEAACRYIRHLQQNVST
Strand = CTTTCCCGATCTTGTTGTGTGGGTGTAGCACATTTGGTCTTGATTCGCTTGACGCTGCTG; value = 5260 a.u.
Strand = GCCGCCGCTTCTCCACACGTGCACTCGGGTCTCTCGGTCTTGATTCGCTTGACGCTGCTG; value = 17600 a.u.
Strand = TGCGCAACAACTTGTTTTGTGGGTGTATGTCTAGAAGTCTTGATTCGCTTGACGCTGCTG; value = 4520 a.u.
Strand = CTTCTGTAAATTTGTCAGGTGGGTGGACGCGCCCCGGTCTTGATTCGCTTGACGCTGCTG; value = 5110 a.u.
Strand = AAATTACTAAGTTGCGCCGTGGGTGACGCCGTATGAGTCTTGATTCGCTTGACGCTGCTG; value = 5300 a.u.
Strand = CCAGCAGTGCCTGCCCACGTGAGCTAGGCGACATCCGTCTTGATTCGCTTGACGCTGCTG; value = 15400 a.u.
Strand = TCTCCATGGCTGAGACTTGTGTGTATCTCACAGTGGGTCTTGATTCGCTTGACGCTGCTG; value = 4740 a.u.
Strand = AGGATCTAATTCGTCTACGTGGCAAAGGTTTTCAAAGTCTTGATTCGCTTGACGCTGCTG; value = 5800 a.u.
Strand = CTTCTGTAAATTTGTGACGTGGGTGGACGCGCCCCGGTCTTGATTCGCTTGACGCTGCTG; value = 5460 a.u.
Strand = AAATTACTAAGTTTTCACGTGATTTACCCCGTATGAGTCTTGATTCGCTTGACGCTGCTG; value = 10800 a.u.
Strand = TACAATAAATAAGTTCTATCATAATACAAGGGAATTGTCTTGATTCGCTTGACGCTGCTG; value = 3700 a.u.
Strand = GATATCACCAGCTGGCACGTCAGTGTCTTGACCAATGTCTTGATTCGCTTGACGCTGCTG; value = 5200 a.u.
Strand = GTATTCAGAGACCATCACGTGATGGAAACGCGATTAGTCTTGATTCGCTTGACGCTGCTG; value = 14900 a.u.
Strand = AAAGCGGTAATTTGTCACTATACTTCACATATCTATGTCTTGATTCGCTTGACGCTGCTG; value = 3600 a.u.
Strand = TTTTTCCTCTCTGGCCAGGTGACGTTCTGAATTTTTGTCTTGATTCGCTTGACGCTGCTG; value = 3080 a.u.
Strand = CATGTATCTTATTGTTTCGTGATGGTGTAGATCCGGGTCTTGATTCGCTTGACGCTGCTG; value = 6570 a.u.
Strand = GACATACAGGAGTGCCACATGCGAAAGCGGAGTGGGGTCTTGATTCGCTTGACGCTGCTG; value = 10100 a.u.
Strand = CACAGTGTTCCGAGTCACGTGCTGTTTCAGTCCTCCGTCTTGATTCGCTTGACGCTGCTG; value = 16200 a.u.
Strand = TGGCGTACGACGACTCATGTGTGTTAGATTGGGACAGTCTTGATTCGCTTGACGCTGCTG; value = 5370 a.u.

Study 3
Target: RING finger protein unkempt homolog, zinc fingers 1-6, GST-SBP tag (UNK, Homo sapiens, UniProt Q9C0B0, residues 30-357)
Sequence of UniProt Q9C0B0 (30-357, looked up): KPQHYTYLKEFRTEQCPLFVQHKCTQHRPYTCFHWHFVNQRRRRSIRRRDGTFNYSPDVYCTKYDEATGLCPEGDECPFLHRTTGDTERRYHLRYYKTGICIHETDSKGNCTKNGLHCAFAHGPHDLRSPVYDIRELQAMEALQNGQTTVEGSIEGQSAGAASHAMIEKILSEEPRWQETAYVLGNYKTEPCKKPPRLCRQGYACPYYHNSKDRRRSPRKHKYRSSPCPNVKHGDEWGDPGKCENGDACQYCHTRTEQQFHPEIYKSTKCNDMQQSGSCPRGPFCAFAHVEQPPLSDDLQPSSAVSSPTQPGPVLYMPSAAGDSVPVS
Method: RNA Bind-n-Seq
Form: RNA
Sample: in vitro
Tested at: not given
Setting: RNA with constant flanks, human-mouse chimeric sites, ends assumed
Reference: input RNA pool
Reading: higher = stronger binding
Measurement: bound/input enrichment
Strand = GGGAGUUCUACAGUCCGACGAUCAAAGAACCUCUCUCUGAUGAAGAUGAGGAAGACAAUGAUGAUGUUGAACCUAUUACUGAAUUUCGAUUUGUGCCCAGUGAUAAGUCAGCAUUGGAGGCGAUGUUCACAGCAAUGUGUGAGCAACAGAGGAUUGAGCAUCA; value = 0.259 ratio
Strand = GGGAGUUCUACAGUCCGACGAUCGAAUCCUACUCAGGCGGAUUUUGCAACACCAAGCUCACAGCAGCAGCAUCUUAGUCACAGUUAGGUAGUUUUGGGGCUCUGUGGCCAGGGUUUUAUUCACAUGCAGGUUUUGAAAAUGUACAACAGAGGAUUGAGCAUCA; value = 2.64 ratio
Strand = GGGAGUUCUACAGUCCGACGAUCCUGAGGAUACCACUGAAGAGACCUUAAAAGGAGUCAUUGAGGGCUCUGUUCGUGCAAGAAUAGUCACUGAUCGGGAAACUGGUUCUUCCAAAGGGUUUGGUUUUGUAGACUUUAAUAGUGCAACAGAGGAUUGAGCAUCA; value = 1.03 ratio
Strand = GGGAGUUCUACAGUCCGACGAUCCACACACUCUUCUGUGGCACCCUCAUUUUGCAGGCCCGGGCCUAUGUGGGACCGCACGUCCUGGCAGUGGUGACCCGCACAGGGUUCUGCACGGCAAAAGGGGGCCUGGUGAGCUCCAUCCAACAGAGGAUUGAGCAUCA; value = 0.106 ratio
Strand = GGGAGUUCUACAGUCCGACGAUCCACAGAGGAGAUCUGCUGUUCCUCACGAAUUUCCGGGAGGACCCCAUCAGAGCUGGUGAAAUAGUUGUUUUUAAAGUUGAAGGACGAGACAUUCCGAUAGUUCACAGAGUAAUCAAGGUUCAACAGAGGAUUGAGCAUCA; value = 2.56 ratio
Strand = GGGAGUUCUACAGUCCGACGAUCGCUCCUCCCCGCUCUGCCCCUGCCUGCCACUGGGCUGGGACCAGAAUCCAGCUUUCUUUUAAAACUCUCAGUGUAACUGUAUCCCGUUUUUUUCUUUUUUUUUUAAAUAGUGUAUUUUUUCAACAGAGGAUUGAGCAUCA; value = 25.3 ratio
Strand = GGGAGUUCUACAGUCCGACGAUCACCAUUUUCGCGGUUCAAGGUUUUGUGGUAGUUCACUUACGGUAUUAAAUUAUUAUUCUGCUUAGCUUAUAAUAAGGAUAAUUGCAUUUAAAGAGGUGAUCACUGAAUACUCUGAAACUUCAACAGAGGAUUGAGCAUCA; value = 0.756 ratio
Strand = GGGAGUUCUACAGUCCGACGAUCGUAUACGGUUAUCGAGGAAAGGACUGUAGAGCUAAUGUAUACCUGCUUCCCACAGGGGAGAUAGUUUAUUUUAUCGCAUCAGUAGUAGUCCUGUUUAAUUAUGAGGAGAGGACUCAGCGACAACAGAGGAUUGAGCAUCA; value = 2.49 ratio

Study 4
Target: Sal-like protein 4, full length isoform B (SALL4, Homo sapiens, UniProt Q9UJQ4-2, residues 1-616)
Method: universal PBM
Form: double-stranded DNA, one strand shown
Sample: in vitro
Tested at: not given
Setting: 8-mer, flanks averaged, mean of replicates
Reading: higher = stronger binding
Measurement: E-score
Strand = CCTAGAGA; value = -0.13
Strand = CCACCGAA; value = -0.143
Strand = GTCCTGAA; value = -0.167
Strand = AATGATGA; value = 0.263
Strand = CGGGCAGC; value = -0.372
Strand = CCCATGTA; value = 0.00987
Strand = AGCTCCTC; value = -0.174
Strand = CCTCGGCG; value = -0.374
Strand = AGAGCGAG; value = -0.139
Strand = AACCGGCA; value = -0.3
Strand = CGAGAATA; value = 0.0292
Strand = GACCGTAA; value = 0.0208
Strand = CCCGTGCG; value = -0.307
Strand = GACGCAGC; value = -0.186
Strand = GAAACCTC; value = -0.194
Strand = CAGACGAG; value = -0.0973
Strand = ATCTAGTG; value = 0.0832

Repeated from above (study 4):
Strand = GTCCTGAA; value = -0.167
Strand = AATGATGA; value = 0.263
Strand = CGGGCAGC; value = -0.372
